Measurements from different studies.
Lines come from different studies, so protocols differ. Several values in a cell are separate wells, animals, samples, runs or records.
Target: 3-phosphoinositide-dependent protein kinase 1 (PDPK1, Homo sapiens, UniProt O15530)

SMILES | assay | test system | conditions | scale | quantity | value
O=C(Nc1ccc(Oc2ncnc3[nH]cc(-c4ccccc4)c23)c(F)c1)c1c2n(n(-c3cc(F)ccc3F)c1=O)CCCC2 | enzyme activity, inhibitor |  | 0.5 µM |  | inhibition | 14%
Cc1[nH]nc2c1N=C(c1ccccc1Cl)c1cnc(N3CCOCC3)cc1N2 | enzyme activity, inhibitor |  | 0.5 µM |  | inhibition | 78.4%
COCC12C(=O)NC3C4(C(OC)CC1O)C1CC5(O)C(OC)C(O)C(OC(C)=O)(C1C5OC(=O)c1ccccc1)C3(O)C(OC)C24 (stereo not drawn) | kinase activity, inhibitor, ProQinase kinase profiling |  | 25 µM | relative to: control | remaining activity | 94% and 105%
NC(=O)[C@@H](O)C[C@H]1CCc2sc3ncnc(O[C@H]4CC[C@H](N5CCOCC5)CC4)c3c21 | enzyme activity, inhibitor |  | 10 µM |  | inhibition | 0%
N[C@H]1CC[C@H](Nc2nccc(-c3cccnc3Oc3ccc(NC(=O)NC4CC4)c4ccccc34)n2)CC1 | kinobead competition pulldown | HEK293/HCT116 lysate mixture | 10 µM, 1 h, 4 °C | lower = stronger competition | log2 LFQ intensity | 23.4 and 23.3
CCn1cc(C(=O)O)c(=O)c2c(N)c(F)c(NC3CCCCC3)cc21 | kinase activity |  | 0.1 µM, added: ATP at Km |  | inhibition | -16.3%
CN1CC[C@@H](COc2cnc(C#N)cc2-c2ccn3nc(NC(=O)C4CC4)cc3c2)C1 | enzyme activity, inhibitor |  | 1 µM |  | inhibition | 13%
Cc1ccc(C)c(-c2ccc3nc(NC(=O)C4CCCCC4)nn3c2)c1 | enzyme activity, Dundee kinase panel |  | 10 µM |  | remaining activity | 96%
CC(=O)N1c2ccc(-c3ccc(CNC(=O)c4cn5cc(-c6cnc(N)nc6)nc(N6CCOCC6)c5n4)cc3)cc2CC[C@@H]1C | KINOMEscan |  | 10 µM |  | remaining binding | 96%
COc1cc(Nc2nc(C)cc(-c3cnn4nc(OC)ccc34)n2)cc(C(F)(F)F)c1 | inhibitor |  | 1 µM | relative to: control | remaining activity | 100%
CNC(=O)C1CCN(c2cc(C)c(F)cc2NC(=O)c2ccc(-c3cc(O)ccc3C)c(C)c2)CC1 | binding, competition with immobilised ligand |  | 1 µM |  | remaining binding | 60%
O=C(Cc1ccc(OCc2ccccc2)cc1)NC1(C(=O)O)CCN(C(=O)c2ccc(-c3cccc(Cl)c3)cc2)CC1 | enzyme activity, inhibitor |  | 10 µM |  | activity vs control | 106%
Cc1cccc(-c2ccc3nc(NC(=O)C4CCCO4)nn3c2)c1 (stereo not drawn) | enzyme activity, Dundee kinase panel |  | 10 µM |  | remaining activity | 96%
Cc1cnc2nc1Nc1cccc(c1)COC/C=C/COCc1cc(ccc1OCCN1CCOCC1)N2 | binding |  | 0.1 µM |  | remaining binding | 100%
CNC1C[S+]2CC[S+]3CC[S+](C1)[Ru-4]321([N]=C=S)[n]2c3ccc(OC)cc3c3c4c(c5cc(F)c[n+]1c5c32)C(=O)NC4=O (stereo not drawn) | KinomeScan |  | 0.1 µM | relative to: untreated | remaining binding | 58%
COc1ccc(C(=O)/C=C/c2ccccc2-c2c[nH]c3ccc(C#N)cc23)c(O)c1 | enzyme activity, inhibitor |  | 20 µM |  | inhibition | 2%
COc1ccc(NC(=O)Nc2ccc3c(c2)C(=O)N(C(C)CO)CC(C)C(CN(C)Cc2ccc4c(c2)OCO4)O3)cc1 (stereo not drawn) | binding, competition with immobilised ligand |  | 10 µM |  | remaining binding | 48%
COc1c(Cl)cccc1Nc1c(-c2ccncc2C#C[C@@]2(C)CCCN2C(=O)/C=C/CN(C)C)[nH]c2c1C(=O)NCC2 | binding, competition with immobilised ligand |  | 3 µM |  | remaining binding | 94%
Nc1ncc2c(n1)-c1c([nH]c3ccc(C4=CCOCC4)cc13)CCC2 | binding, competition with immobilised ligand |  | 1 µM |  | remaining binding | 100%
Cc1cccc(O[C@H]2CCC[C@@H](C(C)CNCc3ccncc3)C2)c1 (relative stereo) | enzyme activity, inhibitor |  | 1 µM |  | inhibition | -4%
CC(C)=CC1OC(C)(C)C2C=C3C(=O)C(Cl)=CC(O)C3C3C(O)C4OC4C(=O)C132 (stereo not drawn) | cell-free assay, competition with immobilised ligand |  | 10 µM |  | remaining binding | 100%
CN1CCN(Cc2ccc(NC(=O)c3cccc(C#Cc4cnc(N)c5ncccc45)c3)cc2C(F)(F)F)CC1 | cell-free assay, competition with immobilised ligand |  | 50 nM |  | remaining binding | 100%
C[C@H]1CN(C(=O)c2cn(-c3ccnc(N)n3)c3cc(C#CC4(O)CCCCC4)ccc23)CCN1 | enzyme activity, inhibitor, FRET |  | 1 µM |  | inhibition | -9%
C=CC(=O)Nc1cccc(-c2cnc3[nH]cc(C(=O)NC(C)(C)C)c3n2)c1 | kinase activity |  | 0.1 µM |  | inhibition | 17% and 6%

A few entries again:
SMILES | assay | test system | conditions | scale | quantity | value
COc1c(Cl)cccc1Nc1c(-c2ccncc2C#C[C@@]2(C)CCCN2C(=O)/C=C/CN(C)C)[nH]c2c1C(=O)NCC2 | binding, competition with immobilised ligand |  | 3 µM |  | remaining binding | 94%
Nc1ncc2c(n1)-c1c([nH]c3ccc(C4=CCOCC4)cc13)CCC2 | binding, competition with immobilised ligand |  | 1 µM |  | remaining binding | 100%
Cc1cccc(O[C@H]2CCC[C@@H](C(C)CNCc3ccncc3)C2)c1 (relative stereo) | enzyme activity, inhibitor |  | 1 µM |  | inhibition | -4%
